# Published values from different studies.
# Lines come from different studies, so protocols differ. ± gives the spread as reported.
# Target: Neuropeptide Y receptor type 1 (NPY1R, Homo sapiens, UniProt P25929)
# Sequence of UniProt P25929 (whole entry, looked up): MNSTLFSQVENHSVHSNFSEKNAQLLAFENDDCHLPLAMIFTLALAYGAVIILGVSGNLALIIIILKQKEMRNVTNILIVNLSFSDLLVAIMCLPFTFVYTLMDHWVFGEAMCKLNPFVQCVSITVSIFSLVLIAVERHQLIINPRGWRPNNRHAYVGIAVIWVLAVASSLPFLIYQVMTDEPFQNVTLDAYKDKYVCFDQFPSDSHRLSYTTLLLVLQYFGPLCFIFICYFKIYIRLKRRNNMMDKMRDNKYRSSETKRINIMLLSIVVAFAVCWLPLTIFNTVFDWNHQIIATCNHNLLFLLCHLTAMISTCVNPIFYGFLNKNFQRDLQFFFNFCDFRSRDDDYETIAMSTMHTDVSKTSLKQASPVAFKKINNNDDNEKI
SMILES,effect on,method,concentration,measurement,result
CC(=O)c1cnc(N)nc1N1CC[C@H]1c1nn2ccc(Cl)c2c(=O)n1-c1ccccc1,ligand displacement,radioligand,10 µM,inhibition,15%
C[Si]1(C[C@H](CN)CC(=O)O)CCCC1,ligand displacement,radioligand,70 µM,inhibition,-5%
Cc1[nH]nc2c1N=C(c1ccccc1Cl)c1cnc(N3CCOCC3)cc1N2,cell-free assay,,10 µM,inhibition,2%
COCC(=O)N1CCc2cc(-c3csc(NC(=O)c4cc(OC)cc(OC)c4)n3)ccc21,cell-free assay,,10 µM,inhibition,-8%
O=C1c2sc(-c3ccc(N4CCC(F)C4)nc3F)nc2CCN1c1cccnc1 (stereo not shown),ligand displacement,radioligand,1 µM,inhibition,-2%
Cn1ccc2cc(-n3c(=O)[nH]c4sc5c(c4c3=O)CCCC5)ccc21,cell-free assay,,10 µM,inhibition,0%
CC[C@H](C)[C@H](NC(=O)[C@H](Cc1ccc(O)cc1)NC(=O)[C@H](CCCNC(=N)N)NC(=O)[C@H](CCCNC(=N)N)NC(=O)[C@H](CC(C)C)NC(=O)[C@H](CC(=O)O)NC(=O)[C@H](C)NC(=O)[C@H](C)NC(=O)[C@H](Cc1ccc(O)cc1)NC(=O)[C@H](CCC(N)=O)NC(=O)[C@H](C)NC(=O)[C@H](CCSC)NC(=O)[C@H](CCC(N)=O)NC(=O)[C@H](CCC(=O)O)NC(=O)[C@@H]1CCCN1C(=O)[C@@H](NC(=O)[C@H](C)NC(=O)[C@H](CC(N)=O)NC(=O)[C@H](CC(=O)O)NC(=O)CNC(=O)[C@@H]1CCCN1C(=O)[C@H](Cc1ccc(O)cc1)NC(=O)[C@@H](NC(=O)[C@@H]1CCCN1C(=O)[C@H](CCCCN)NC(=O)[C@H](CC(C)C)NC(=O)[C@@H]1CCCN1C(=O)[C@@H](N)Cc1ccc(O)cc1)C(C)C)[C@@H](C)O)C(=O)N[C@@H](CC(N)=O)C(=O)N[C@@H](CCSC)C(=O)N[C@@H](CC(C)C)C(=O)N[C@H](C(=O)N[C@@H](CCCNC(=N)N)C(=O)N1CCC[C@H]1C(=O)N[C@@H](CCCNC(=N)N)C(=O)N[C@@H](Cc1ccc(O)cc1)C(N)=O)[C@@H](C)O,,,concentration not given,Emax,104 ± 4%
CO[C@@H](C)c1c(NC(=O)Nc2cnc(-n3nccn3)c(C(F)(F)F)c2)cnc2sc(C)nc12,ligand displacement,radioligand,10 µM,inhibition,-52.8%
C[Si](C)(C)C[C@@H](CN)CC(=O)O,ligand displacement,radioligand,75 µM,inhibition,-11%
CCC(=O)N(C)c1ccc(Cl)c(Cl)c1,ligand displacement,radioligand,10 µM,inhibition,< 10%

# Excerpt of the above:
SMILES,effect on,method,concentration,measurement,result
CCC(=O)N(C)c1ccc(Cl)c(Cl)c1,ligand displacement,radioligand,10 µM,inhibition,< 10%
